Assay results pooled from the literature.
Parts stem from different laboratories: compare values within a part only. Positions count from the first letter of the parent shown.

Set 1
Target: RING finger protein unkempt homolog, zinc fingers 1-6, GST-SBP tag (UNK, Homo sapiens, UniProt Q9C0B0, residues 30-357)
Technique: RNA Bind-n-Seq
Molecule type: RNA
Matrix: in vitro
Tested at: not given
Setting: RNA with constant flanks, human and mouse sites, ends assumed
Baseline: input RNA pool
Reading: higher = stronger binding
All sequences stand within: GGGAGUUCUACAGUCCGACGAUC … CAACAGAGGAUUGAGCAUCA
Residues (chain): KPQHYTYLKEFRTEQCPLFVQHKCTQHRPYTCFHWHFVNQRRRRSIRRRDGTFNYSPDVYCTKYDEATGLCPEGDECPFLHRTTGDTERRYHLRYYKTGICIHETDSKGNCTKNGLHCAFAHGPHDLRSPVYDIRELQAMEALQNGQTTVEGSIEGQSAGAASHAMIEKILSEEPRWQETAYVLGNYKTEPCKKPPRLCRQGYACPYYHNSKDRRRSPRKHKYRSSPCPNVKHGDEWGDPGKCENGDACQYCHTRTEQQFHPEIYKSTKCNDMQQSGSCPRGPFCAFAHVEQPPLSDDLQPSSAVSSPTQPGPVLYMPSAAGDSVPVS
| Oligonucleotide | bound/input enrichment [ratio] |
| --- | --- |
| AAUUCUGUUGAAGACAGUUGAGAAUUCCUUUGGAGAAAACAGCCCAGCUUGGCGUGGGGUUAGGUUGCUGUUUCAAAUAACUCACAGGCCCAGGUGACAUGGAAUCUUGGAGCAGCCUUG | 0.294 |
| GCCUCUUGCCUUUUUUUUUAAUUUUAAAUUAUCUAAAUUUAUUGUUUGUUAUGGUGUCAAUAGCAGUGUUUUUCUAUCAGUUUUGUCACUCCUCCUACCCCACCUUGGACUCGUUUGAGA | 9.49 |
| CUCAUUCAGCUCCCCUGACCACAGAGGAAGAGGAUCACUGUGCUAAUGGACAGGACUGUAAUCUAAAUCCAGAGAUUGCCACAAUGUGGAUUGAUGAAAAUGCUGUUGCAGAAGACCAGU | 0.133 |
| GGUGAGAGCAUCAUGGUGGAACUUGCUGCUGGGCCUUUCGAGAAUGCUGAAAAGUUGCCAGUAGUUAUCAGGGUGCCAAAACUGAUGGGUUACUCAGUCAUGAGUGUAUGCUCCGUGCCU | 0.0889 |
| UAUGGUGUAUUCCAGUUUAAAGUGGAUUACAACCGGCUAGGCUACACACACCUGUACUCUUCCACUCAGGUAUCCGUGCGGCCACUCCAGCACACGCAGUAUGAGCGCUUCAUCCCCUCG | 0.214 |
| GCAGAGAAUGACCCAUUUUCAACUGACACCCUGAGCUCACACCCUCUCAGUGAGGCAAGAAGUGAUUUCUGUCCCUCAUCUAGUGAUCCUGACUCAGCUGGCCAGGACCCCAACAUCAAU | 0.192 |

Set 2
Target: RNA binding protein fox-1 homolog 2, RRM domain, GST-SBP tag (RBFOX2, Homo sapiens, UniProt O43251-10, residues 100-194)
Technique: RNA Bind-n-Seq
Molecule type: RNA
Matrix: in vitro
Tested at: 365 nM
Setting: natural RNA segment, single round, ends assumed
Baseline: no-protein control
Reading: higher = stronger binding
All sequences stand within: GGGAGUUCUACAGUCCGACGAUC … UGGAAUUCUCGGGUGCCAA
Construct (chain): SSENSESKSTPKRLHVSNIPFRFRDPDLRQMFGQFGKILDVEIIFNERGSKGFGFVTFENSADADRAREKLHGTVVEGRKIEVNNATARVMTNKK
| Oligonucleotide | RBNS enrichment (R) |
| --- | --- |
| GGAAACGAUUCCCCCAGUCAUUCUGGGAACAUGUUGUAAGCACUGACUGGGACCAGGCACCAGGCAGGGUCUAGAAGGCUGUGGUGAGGGAAGACGCCUUUCUCCUCCAA | 0.327 |
| UAUGUGCUAUGGAAGGAAAUGCUGGUGACUAAAAUAAGGUUUACUCUGAAAGAGGAGGAAUUUUAUUCAAAGCAUUCAAACAUUUUAUUCAAGUGUUUCAAAAUUCAAAG | 0.419 |
| CAGUCUUGUGAGAUGGGGGCACAUAGCACUGGGGAAAGCAGAACUCCAUUCUCACCUCUAUUUUGAGCUUCAGUGCUUUAUUUCAGUAUGAGGAAAAACAACAACAAACU | 0.641 |
| AUCCUGUGUCUCCUGCUGUGUGGACACAUGUCACUCCUGCUCCACAUGCCAACAUGGUUCAUUUCCAAGGGCACCCUAUAACCAGAGAGCACAUUAAUUCCUGUCCUAUA | 1.07 |
| UCUGUUUUUACAUUUACUGAAUAAGAUUUGAGUAAUGAAAGUCUGUAGUCUUAAAACUCUAAAACAGUUGUACUGCUUCCAAGCAGCAGUAUUUAUAGUAACGUAAGCUA | 0.409 |
| UGGUAAACGUGGCAGAGCAGAAUGGGAGGCUGGACCCUGAGGAAGGGCCCCUCUCCUGGCAUCUGUCUCUUGCUACCUAAGCCUGUGCCUCUCCCUAAAGAGCUGCCUCC | 0.2 |
| UGGAGAAACACACACCUGACACUAUCCACAGAUAUAGUCAAGUAGAUUUGGAUAGAGAAUACUAUUUCCAAAGUAGUGUUUAGCUCAUCUAGGGGGAUGUGUUUAUAUAU | 0.365 |
| AUGCACAAAACACUGCUAGAAGGCUCACCUCUCAAAACACGACUCUUUGCAUCACUAUUAAAGAGCAGAAAGUUCUAGAAAUGAUCCCAGCCUCAUCCCCUAUACAGUUA | 1.91 |
| CAGGAAAGAACCAUGAAAGACUUUGUGUUAGUGAAGGGUAUAACCGUGACACAGAGGCAGCUGUCAGCUGGCACCCACCUCGUCCCCCAGACCACCCUUCUUCCCAAGUG | 0.376 |
| AGGCGGGGAGGUGUUCAAAGACAUCUCCCUCAGUGCGGAUUUAUAUAUAUAUUUUUCCUUCACUGUGUCAAGUGGAAACAAAAACAAAAUCUUUCAAAAAAAAAAUCGGG | 0.566 |
| UUACAACAUUGCACAGCUGUGUAGAAACCCCGUGUUCUUUCCCAUAGGUGCCAAUUUGGGUGGGGGAGGAAGGAACAAUUACAAGAUCCCCAUCUGUCUGCCCAUGCCAC | 0.461 |
| UAACUGUGUCUUAGCAAUGUUGUAUAUAGUUCUUUUAAUAUUCAUAAGGUAUAUUUUUGAAUUUUGGUAUUUGUUGAGAUUGCAUAGAAGAAUAGUAGGAAAUCCAAUGA | 0.557 |

Set 3
Target: Ras GTPase-activating protein-binding protein 1, full length (G3BP1, Homo sapiens, UniProt Q13283)
UniProt Q13283, sequence (whole entry, looked up): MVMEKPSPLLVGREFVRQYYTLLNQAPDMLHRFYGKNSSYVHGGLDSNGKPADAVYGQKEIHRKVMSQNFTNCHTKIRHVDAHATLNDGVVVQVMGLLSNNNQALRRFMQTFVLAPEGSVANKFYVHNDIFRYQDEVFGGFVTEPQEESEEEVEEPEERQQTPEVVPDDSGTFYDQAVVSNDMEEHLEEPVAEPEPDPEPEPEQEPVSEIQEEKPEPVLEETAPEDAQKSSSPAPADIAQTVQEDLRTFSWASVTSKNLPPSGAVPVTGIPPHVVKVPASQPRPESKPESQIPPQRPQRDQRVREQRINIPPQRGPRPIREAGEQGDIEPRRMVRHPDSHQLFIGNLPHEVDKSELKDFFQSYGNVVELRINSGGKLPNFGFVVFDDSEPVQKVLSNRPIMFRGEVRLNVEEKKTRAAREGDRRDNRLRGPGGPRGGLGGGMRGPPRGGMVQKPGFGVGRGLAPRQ
Technique: RNA Bind-n-Seq
Molecule type: RNA
Matrix: in vitro
Tested at: 200 nM
Setting: whole 134-nt RNA, ends assumed
Added: 150 mM KCl
Baseline: input library
Reading: higher = stronger binding
All sequences stand within: GGGAGUUCUACAGUCCGACGAUC … UGGAAUUCUCGGGUGUCAAGG
| Oligonucleotide | log2 enrichment |
| --- | --- |
| AAGUCCUGUGCUACACAUCGUAUGUACCGAAUCGGGAAAAGGAAAAGGGAAAAGGGGAAAGUAUUAUGUUACGCCGUUCGGAUCUGCACU | -0.546 |
| UCCCAAUGCUCGGAGGAAGCCCAAGGGCAGCCCUCGUGUACCUGAUGCCAAGAAGCCUAAACCCAAGAAAGUAGCUCCCCUGAAAAUCAA | 0.763 |
| UCCUUUCUGUCAUUUUACACCCACAGUUGAAGAUUCCUGUCUCUGGAUCCAAAUCAGAGGGCCUUCUCUACGUCCACUCAUCCAGAGGUG | -1.55 |
| GUCCUGUGCUACACAUCGUAUGUACCGAAUCAAACCCCCAAACCCCCAAAUUUUUAAAAAAGUAUUAUGUUACGCCGUUCGGAUCUGCAC | -0.294 |
| UGGGAGGUGGAUUUUGUUUAUUUUUUUAGCUCAUUUCCAGGGGUGGGAAUUUUUGUUUAAUAUGUGUCAUGAAUAAAGUUGUUUUUGAAA | 0.299 |
| GCAGGAAGUAAAAACAAAUGGAAAUGCUUCGGAUAGUGGCAGGGGUGGGGGUUGCUAAGGAAAGGGUGGGAUGGGUGUGGGUAAAGAGUU | 0.999 |
| CCUGUGCUACACAUCGUAUGUACCGAAUCGGGGCCCCCCGGGCCCCCCGGCCCCCCGGGGAAAGUAUUAUGUUACGCCGUUCGGAUCUGC | -0.698 |
| UCAAGUCCUGUGCUACACAUCGUAUGUACCGAAUCGGGUUUGGUUUGGUUUGGGAAAGUAUUAUGUUACGCCGUUCGGAUCUGCACUUCC | -0.774 |
| CACAGACAACACGCACCCACACAGACACAGAGGGAAGGGGUUGGGAUGGGGACAGGGUGCACAGCAGGGCGGGGUAGGACCCCGGCCCCU | 1.91 |
| UCCUGUGCUACACAUCGUAUGUACCGAAUCGGGGAAAAAGGGGUUUUUGGGGUUUGGGGAAAGUAUUAUGUUACGCCGUUCGGAUCUGCA | 0.749 |

Set 4
Target: CCNB3, cyclin fold, Cln2 fusion (human)
Technique: yeast growth competition, sequencing
Matrix: yeast
Setting: weak parent motif
Baseline: not given
Reading: higher = stronger binding
Parent: RBL1 docking peptide (human); GSAKRRLFGEDPP; partner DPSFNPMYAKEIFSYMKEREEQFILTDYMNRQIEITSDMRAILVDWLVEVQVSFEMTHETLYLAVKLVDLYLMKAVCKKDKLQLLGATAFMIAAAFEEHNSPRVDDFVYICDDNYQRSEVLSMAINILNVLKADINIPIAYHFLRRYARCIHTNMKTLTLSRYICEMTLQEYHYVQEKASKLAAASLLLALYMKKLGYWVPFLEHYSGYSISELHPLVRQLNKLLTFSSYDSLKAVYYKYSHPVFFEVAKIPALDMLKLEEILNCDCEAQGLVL
| Variant | normalised enrichment score |
| --- | --- |
| GSAKRRLFGEDPS [P13S] | 0.357 |
| GSAKRRLFGEWPP [D11W] | 0.401 |
| GSAKRRLFGEMPP [D11M] | 0.56 |
| GGAKRRLFGEDPP [S2G] | 0.581 |
| GSAKMRLFGEDPP [R5M] | 0.457 |
| GSSKRRLFGEDPP [A3S] | -0.221 |
| GSAKRRLFYEDPP [G9Y] | 0.657 |
| GSAKRRTFGEDPP [L7T] | -0.0552 |
| GSAKRYLFGEDPP [R6Y] | 0.694 |
| GSAKRRSFGEDPP [L7S] | 0.208 |
| GSAFRRLFGEDPP [K4F] | 0.459 |
| GSAKRRLFGEYPP [D11Y] | 1.03 |
| GSAKRRLFGTDPP [E10T] | 0.431 |
| RSAKRRLFGEDPP [G1R] | 1.29 |
| KSAKRRLFGEDPP [G1K] | 0.935 |

Set 5
Target: Histone acetyltransferase KAT6A, both winged helices, GST fusion (KAT6A, Homo sapiens, UniProt Q92794, residues 1-181)
Technique: protein binding microarray
Molecule type: double-stranded DNA, one strand shown
Matrix: in vitro
Tested at: not given
Setting: 8-mer, flanks averaged, mean of 2 arrays, mostly near background
Baseline: not given
Reading: higher = stronger binding
Residues (chain): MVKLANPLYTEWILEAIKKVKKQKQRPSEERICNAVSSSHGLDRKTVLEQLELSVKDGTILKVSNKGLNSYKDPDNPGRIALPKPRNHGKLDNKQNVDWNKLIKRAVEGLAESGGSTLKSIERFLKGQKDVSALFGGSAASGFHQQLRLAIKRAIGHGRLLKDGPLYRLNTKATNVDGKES
| Oligonucleotide | E-score |
| --- | --- |
| TAAACCAA | -0.0818 |
| ATCTTGTC | -0.0223 |
| ATCTAAGC | -0.0317 |
| ACACAAGC | -0.0546 |
| CTGTCTGC | -0.0545 |
| CAATATTC | -0.0994 |
| CTGCCAAA | -0.0926 |
| GCTATAGC | 0.137 |
| CGCACACG | 0.234 |
| TAGTCCCA | -0.246 |
| AATTAGAA | -0.113 |
| ACAGTCAC | -0.106 |
| CATCGCAC | 0.00772 |
| AGGCGGTA | 0.173 |
| CAAGGATG | -0.123 |
| ACGAATAC | -0.147 |
| AATGACAG | -0.282 |
| CAGGATCC | -0.144 |
| CTATTCCC | -0.125 |
| ATTGCAAA | -0.099 |
| GCTAGAGC | 0.0533 |
| GCTTCCCC | 0.0147 |
| CCAGTTTA | -0.203 |
| CAGTGAAG | -0.0644 |
| ACGCTGGG | 0.00385 |

Excerpt of the above (set 5):
| Oligonucleotide | E-score |
| --- | --- |
| CAATATTC | -0.0994 |
| CTGCCAAA | -0.0926 |
| GCTATAGC | 0.137 |
| CGCACACG | 0.234 |
